Experimental data from different studies.
Numbered parts are unrelated; each lists some results of a single study. Positions count from the first letter of the parent shown.

Study 1
Target: RNA binding protein fox-1 homolog 2, RRM domain, GST-SBP tag (RBFOX2, Homo sapiens, UniProt O43251-10, residues 100-194)
Method: RNA Bind-n-Seq
Form: RNA
Sample: in vitro
Concentration: 365 nM
Notes: natural RNA segment, single round, ends assumed
Baseline: no-protein control
Direction: higher = stronger binding
All sequences stand within: GGGAGUUCUACAGUCCGACGAUC … UGGAAUUCUCGGGUGCCAA
Residues (chain): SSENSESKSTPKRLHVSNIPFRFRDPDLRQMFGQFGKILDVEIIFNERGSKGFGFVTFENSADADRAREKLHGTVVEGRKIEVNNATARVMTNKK
Oligonucleotide	RBNS enrichment (R)
CCGCGCCAGAGCCUCACAGCCACAGCCACACCAACCUCCCUCCUCUCAAGCAGCAGAAUCAGCCUACGCUCCCCAGCCUCAGUGCCCCUGCCCCACACAGGUCACGCUGG	0.477
UCACCCUUCCUCUUCCUGUCACAGUGACAGGUCUUCACUAGCUGGCUUCUUUCUGUACUUGCUGACUUCUGUCAUAUUUCUUUCCAGAUGUGUUUACAGGUCCCUGUAAG	0.414
CUUCAGAACUCACAGGACAGGGAUUGCUGGAGAACACUGCGAGCUGUGGAGCACACUUAAGGGAUGGGAUGGUCAGAGGCGCUCCCGAGCAAGCGGGGCAUCAUUCUCCC	0.896
UCUGCAGGACAUCUGGUCCUAAACUGGAACAGAGACGCUUGGAAUUUGUUUUUGUUUUUGUUUGUUUGUUUGUUUUUUCUUGAAGUGCCAAAGGUCAAUUUUACAGAAGA	5.24
AAACUAAAGGCAAUAACAGAAGCUGCUCUCAGAGCCUGACUGUGCACAAAACACUAGUGAAGCCUGCUGAACUAAUUCUGCCUCUGGAAAUCUUUUCUGGUUCUUUACAG	0.228
UCACCUAUGUACAAUGGAGAGGGGUUCUAAGCACAAAUCUGCUGCUCAUGUAACGGUGGUACAUAAUAUCAAAUCAAAAGUUAUCUGUGACUAUAUAUAGGGAUCACAAA	0.365
GCCUUCCCCUGAUAACCAUUUUAACCCAUGGCCUUCGUCAAAACCCUUUCAUUUAGCUACUUCAAAUAAUGUUAUCCACCUCCUGUCUCACAGCAGUGGGUACAGCCUGU	0.669
UUAAAACAGUAGCUAUAGCCAUUAACCAAAGGACAGAUGAUAUAUAUAUAUAUGAUAUAUAUAUAUAUAUAAGUUCUUUUUUAGCUGUACCUACGUACUUAUAUCAGCAC	1.16

Study 2
Target: Histone acetyltransferase KAT6A, winged helix 1, GST fusion (KAT6A, Homo sapiens, UniProt Q92794, residues 1-85)
Method: protein binding microarray
Form: double-stranded DNA, one strand shown
Sample: in vitro
Concentration: not given
Notes: 8-mer, flanks averaged, mean of 2 arrays, mostly near background
Baseline: not given
Direction: higher = stronger binding
Construct (chain): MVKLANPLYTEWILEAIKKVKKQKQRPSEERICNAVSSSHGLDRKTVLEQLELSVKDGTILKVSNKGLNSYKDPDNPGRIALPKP
Oligonucleotide	E-score
CGGACCAC	0.0372
GGAGCCAA	-0.158
CACATCAA	-0.104
CCATAGCC	0.00227
AGAATTCA	-0.228
ATGTCTTA	-0.133
GAGCGAAA	-0.0552
CACTCTCC	-0.0814
CTGGCGGC	0.341
GCATCTGA	-0.0277
CCATCCAG	-0.18
CGTCCCAG	-0.129
GCTGTGCA	0.0341
CCTAAAGC	-0.0364
AAGCCGTG	0.321
ACAATGGA	-0.182
ACATGCAG	-0.0642
AGGTTTCC	-0.119
CTACGTCA	-0.128
GTTCCCAA	-0.0887
CCCATCAA	-0.181
AAGCACAC	-0.0883
TGTCGGAA	0.0816
CGACAAAA	-0.106
ATTTCAGG	-0.104

Study 3
Target: CCNE1, cyclin fold, Cln2 fusion (human)
Method: yeast growth competition, sequencing
Sample: yeast
Notes: strong parent motif
Baseline: not given
Direction: higher = stronger binding
Starting sequence: GMNC docking peptide (human); KNAKRNLSSEFAN
Substitution	normalised enrichment score
KNAKRNWSSEFAN [L7W]	0.11
KNAKRNLSSEFKN [A12K]	0.852
KNAKRNLSSQFAN [E10Q]	0.86
KNAKRNKSSEFAN [L7K]	0.635
KNAKRNLSSEWAN [F11W]	0.954
KNAKRNLSSCFAN [E10C]	0.603
KIAKRNLSSEFAN [N2I]	0.431
KNQKRNLSSEFAN [A3Q]	0.198
KKAKRNLSSEFAN [N2K]	1.45
KNIKRNLSSEFAN [A3I]	0.514
KNAKRNLSVEFAN [S9V]	1.15
KGAKRNLSSEFAN [N2G]	2.22
KAAKRNLSSEFAN [N2A]	1.01
KNAKRNLSSEGAN [F11G]	0.143
KNAKRNLSSERAN [F11R]	-0.0589
KNAKRNLCSEFAN [S8C]	1.27
KNAKRNLESEFAN [S8E]	1.53
KLAKRNLSSEFAN [N2L]	0.662
KNAKRNCSSEFAN [L7C]	-0.128
KNSKRNLSSEFAN [A3S]	0.391
KNAKRNLLSEFAN [S8L]	4.45
KNAKQNLSSEFAN [R5Q]	0.151
KNAKDNLSSEFAN [R5D]	0.00944
KNATRNLSSEFAN [K4T]	0.227
KNAKRNLKSEFAN [S8K]	0.607

Mixed results
Substance	target	assay	test system	conditions	scale	endpoint	value
PhoQ, residues 284 288 289 292 302 303 SVHLDV	PhoP, residues 12 14 15 18 19 QQAYL (Escherichia coli, UniProt P23836)	Sort-seq, measured: YFP reporter	E. coli	PhoQ-PhoP variant library, together with: 10 µM Mg2+	baseline: high Mg2+ state, higher = stronger signaling	fold induction	20.5

Repeated from above (study 3):
Substitution	normalised enrichment score
KNAKDNLSSEFAN [R5D]	0.00944
KNAKRNLSSQFAN [E10Q]	0.86
KNATRNLSSEFAN [K4T]	0.227
KNAKRNKSSEFAN [L7K]	0.635
KNAKRNLCSEFAN [S8C]	1.27
KNAKRNLSSCFAN [E10C]	0.603
KNAKRNLSSEWAN [F11W]	0.954
KNAKRNLSVEFAN [S9V]	1.15
KGAKRNLSSEFAN [N2G]	2.22
